# Measured values of several laboratories.
# Each numbered part is a random draw from the data of one study; scales do not carry over between parts.

# Set 1
# Target: Fragile X messenger ribonucleoprotein 1, C-terminal low-complexity region (Fmr1, Mus musculus, UniProt P35922)
# Method: RNA Bind-n-Seq
# Molecule type: RNA
# Sample: in vitro
# Concentration: 200 nM
# Notes: whole 134-nt RNA, ends assumed
# Together with: 150 mM LiCl
# Relative to: input library
# Direction: higher = stronger binding
# Library: 7-deaza-guanosine replaces G
# Shared flanks, not repeated: GGGAGUUCUACAGUCCGACGAUC … UGGAAUUCUCGGGUGUCAAGG
Sequence,log2 enrichment
UCUCUUGCUCAAGUUUUCUCUCACAGAUGACAGCCACCUACCACAUAACAUGACCAGCAAACGGACUGUUCCUAGUCCAGAGGGCCUUGC,2.03
AGUCCUGUGCUACACAUCGUAUGUACCGAAUCGGGUUUGGGUUUGGGUUUUUUUGGGAAAGUAUUAUGUUACGCCGUUCGGAUCUGCACU,-1.79
UCCUCAAGUCCUGUGCUACACAUCGUAUGUACCGAAUCGGCGGCGGGGCGGGAAAGUAUUAUGUUACGCCGUUCGGAUCUGCACUUCCAG,0.945
UCCUGUGCUACACAUCGUAUGUACCGAAUCGGGUUUUUUGGUUUUUUGGGGUUUUUUGGAAAGUAUUAUGUUACGCCGUUCGGAUCUGCA,-0.304
AGUCCUGUGCUACACAUCGUAUGUACCGAAUCGGGAAAGGGUUUGGGAAAAAAAGGGAAAGUAUUAUGUUACGCCGUUCGGAUCUGCACU,-2.54
AGUCCUGUGCUACACAUCGUAUGUACCGAAUCGGGAGGGUUUUUUUGGGUUUUUGGGAAAGUAUUAUGUUACGCCGUUCGGAUCUGCACU,-1.53
CCUGUGCUACACAUCGUAUGUACCGAAUCGGGGUUUUUUUGGGGUUUUUGGGGAAAGGGGAAAGUAUUAUGUUACGCCGUUCGGAUCUGC,-0.159
CUCAAGUCCUGUGCUACACAUCGUAUGUACCGAAUCGGGCCGGGCCGGGCCGGAAAGUAUUAUGUUACGCCGUUCGGAUCUGCACUUCCA,0.978

# Set 2
# Target: RNA binding protein fox-1 homolog 2, RRM domain, GST-SBP tag (RBFOX2, Homo sapiens, UniProt O43251-10, residues 100-194)
# Method: RNA Bind-n-Seq
# Molecule type: RNA
# Sample: in vitro
# Concentration: 365 nM
# Notes: natural RNA segment, single round, ends assumed
# Relative to: no-protein control
# Direction: higher = stronger binding
# Shared flanks, not repeated: GGGAGUUCUACAGUCCGACGAUC … UGGAAUUCUCGGGUGCCAA
# Construct (chain): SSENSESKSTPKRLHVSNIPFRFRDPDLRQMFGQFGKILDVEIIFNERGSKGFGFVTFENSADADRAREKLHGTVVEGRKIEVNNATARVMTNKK
Sequence,RBNS enrichment (R)
CAAAGUGUAGCUGCUAGAGGGAUGACCUCUCCUUCAACUUGUCCUGAAGCACUUACAUUUAGUUGUUGAAAGCAGUAGUAGCAGACCAAGCUAGCCCCUUAUCCAGCCAA,0.238
UGAACACUUUGCUGCUUAGAAAUUUCUUCCGCUAGUUAACCUAAAUCAUCUCUCUCAAGUUCAAAGUUCCACAAAUCCCUAUGGAAGGGGCAAAAUGCUGCCAGUCUCUU,0.892
UUUGUUGUUGUUGUUUUGUUAGCUUUCCUACUUCCACUGAGUAGCAUUUUGUAGAAUAAAAUUAAUCAAGAACAAAGAGCUCGUGAUGGUUCCUUCCCUGUCGCCACCUU,0.322
AAUCUUACCUACCUCCUGGGGGGGGGGGAGUUCUGAGAACGAAGUCAUUCUUAGUGUUCAGGUGCUAAAGGUUGUUCUCUUUGGGAACAGAGUGACAAGAAACUGGCUAG,0.718
CUCUCACUCCUCUGAGGCUUUCCUGGGGCCUCCUCCCAUCCUGCCAUGAGCAAUUGUUUGCUCUUGAAAACCUCACUGCAAGGCUGAGGCUGAGCUUCUGAUUCACCACC,0.351
UUCUGUGAUCUGCCCUGAUUAAGAUGAAUUGUGAAAUUUACAUCAAGCAAUUAUCAAAGCGGGCUGGGUCCCAUCAGAACGACCCACAUCUUUCUGUGGGUGUGAAUGUC,0.278
UGAAGCAGGUCUUCCAGACCCUGCGAUCCUUUCUGUAGCAGUGAUUCUAAAGUGGCGUUUGCUGUGUGCUUGAGAGUAACACUGCACGCUGCAGGGGCUGUUGCAGCAGU,0.728
GAUAAUUGGUGUGAGGUUGAAAUCCCUGGUUCCUGGAGGACAGACAACCUGACCUCCGACUGUCAGUUUCCCUUGACACCAUCUUCAUAGAAAUACCUGACUCCUGUACC,0.16

# Set 3
# Target: Interferon regulatory factor 5, full length, phosphomimetic (IRF5, Homo sapiens, UniProt Q13568-2, residues 1-514, S451D/S453D/S456D/S462D)
# Method: protein-binding microarray
# Molecule type: double-stranded DNA, one strand shown
# Sample: in vitro
# Concentration: 940 nM top
# Notes: 60-bp whole probe
# Together with: salmon DNA 0.4 mg/ml
# Relative to: random background probes
# Direction: higher = stronger binding
# Shared flanks, not repeated: GCCTAGCAC … GTCTTGATTCGCTTGACGCTGCTG
Sequence,fitted relative affinity
GACGGTATCGACTATCGGGATGTGCTA,4.73 z-score
TTAGGACTGGCGTATCGGTTAGTGCTA,0.478 z-score
TTAGATATCCGGTATCGATTAGTGCTA,4.18 z-score
GACGGTTTCGGTACTGGGGACGTGCTA,12.4 z-score
TTAGATATTGGGTATCGATTAGTGCTA,3.32 z-score
TTAGGTCTCCTTATCCATTAGTGCTAG,0.317 z-score
TCATATACCACTCTTGCACTGTGCTAG,0.654 z-score
TTAGGTATCCTTCTCCTTTTGTGCTAG,0.915 z-score
TTGTGTGTGTGTTTGTGTGTGTGCTAG,0.307 z-score
GGGAGCTATTAATTATTTTGGTGCTAG,0.0503 z-score
ACCGATTTCCTTCACCCACTGTGCTAG,1.06 z-score
GGCGGTATCGGGTATCGGGACGTGCTA,5.51 z-score
TTCGGTATCGACACTGGGTTAGTGCTA,4.79 z-score
TTAGGTTTCGGACTGGGATAGTGCTAG,7.43 z-score
TTAGGACGGGGGACTGGGTTAGTGCTA,1.85 z-score
TTATGACTGGGACTGGGTTAGTGCTAG,-0.214 z-score
TTAGGTATCGGGTTTCGGCTAGTGCTA,6.31 z-score
TTAGGACTGCTCTTCCTTTAGTGCTAG,-0.0939 z-score
TTAGGACTGCTTCTCCCTTAGTGCTAG,0.182 z-score

# Set 4
# Target: Transcriptional repressor CTCF (CTCF, Homo sapiens, UniProt P49711, residues 1-727, full length assumed)
# Sequence of UniProt P49711 (whole entry, looked up): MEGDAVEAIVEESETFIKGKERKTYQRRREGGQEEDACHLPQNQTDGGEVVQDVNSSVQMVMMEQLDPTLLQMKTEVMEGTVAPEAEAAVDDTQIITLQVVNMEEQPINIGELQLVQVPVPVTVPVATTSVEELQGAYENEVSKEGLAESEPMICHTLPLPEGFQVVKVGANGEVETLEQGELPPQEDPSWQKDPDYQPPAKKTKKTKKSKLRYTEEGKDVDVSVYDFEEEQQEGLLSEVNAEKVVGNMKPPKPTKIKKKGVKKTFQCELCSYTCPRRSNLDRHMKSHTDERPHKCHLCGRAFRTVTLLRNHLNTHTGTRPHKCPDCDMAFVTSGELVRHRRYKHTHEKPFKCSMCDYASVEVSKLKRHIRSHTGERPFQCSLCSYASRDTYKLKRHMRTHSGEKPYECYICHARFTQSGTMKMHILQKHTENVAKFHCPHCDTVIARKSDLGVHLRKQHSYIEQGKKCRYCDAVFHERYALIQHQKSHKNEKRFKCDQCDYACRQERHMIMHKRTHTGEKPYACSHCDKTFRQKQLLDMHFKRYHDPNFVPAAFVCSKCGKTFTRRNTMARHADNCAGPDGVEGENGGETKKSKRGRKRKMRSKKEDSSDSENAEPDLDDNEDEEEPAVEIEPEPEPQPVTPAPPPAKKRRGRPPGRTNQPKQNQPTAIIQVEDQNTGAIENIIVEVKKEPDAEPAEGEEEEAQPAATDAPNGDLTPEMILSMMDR
# Method: protein-binding microarray
# Molecule type: double-stranded DNA, one strand shown
# Sample: in vitro
# Concentration: not given
# Notes: k-mer, scored over probes, only values ≥0.25
# Direction: higher = stronger binding
Sequence,E-score
CAATACTC,0.292
AACATATT,0.262
GATATATA,0.321
GGCGTATA,0.256
CTATATAA,0.274
TATTACAA,0.322
AAAAGTAC,0.276
ACTAATAA,0.301
ATATTCAA,0.253
ACCATAAT,0.303
CGGCGCCG,0.26
GGCGCGTA,0.334
GTATTATA,0.354
ATAATCTA,0.268
ACTCGCGC,0.322
ACATAATA,0.363
GCTGATTA,0.342

# For quick reference, copied from above (set 2):
Sequence,RBNS enrichment (R)
UGAACACUUUGCUGCUUAGAAAUUUCUUCCGCUAGUUAACCUAAAUCAUCUCUCUCAAGUUCAAAGUUCCACAAAUCCCUAUGGAAGGGGCAAAAUGCUGCCAGUCUCUU,0.892
UUUGUUGUUGUUGUUUUGUUAGCUUUCCUACUUCCACUGAGUAGCAUUUUGUAGAAUAAAAUUAAUCAAGAACAAAGAGCUCGUGAUGGUUCCUUCCCUGUCGCCACCUU,0.322
AAUCUUACCUACCUCCUGGGGGGGGGGGAGUUCUGAGAACGAAGUCAUUCUUAGUGUUCAGGUGCUAAAGGUUGUUCUCUUUGGGAACAGAGUGACAAGAAACUGGCUAG,0.718
CUCUCACUCCUCUGAGGCUUUCCUGGGGCCUCCUCCCAUCCUGCCAUGAGCAAUUGUUUGCUCUUGAAAACCUCACUGCAAGGCUGAGGCUGAGCUUCUGAUUCACCACC,0.351
